Assay results collected from several papers.
Numbered parts are unrelated; each lists some results of a single study. Substitutions count along the parent as printed.
Chain of UniProt P23975 (whole entry, looked up): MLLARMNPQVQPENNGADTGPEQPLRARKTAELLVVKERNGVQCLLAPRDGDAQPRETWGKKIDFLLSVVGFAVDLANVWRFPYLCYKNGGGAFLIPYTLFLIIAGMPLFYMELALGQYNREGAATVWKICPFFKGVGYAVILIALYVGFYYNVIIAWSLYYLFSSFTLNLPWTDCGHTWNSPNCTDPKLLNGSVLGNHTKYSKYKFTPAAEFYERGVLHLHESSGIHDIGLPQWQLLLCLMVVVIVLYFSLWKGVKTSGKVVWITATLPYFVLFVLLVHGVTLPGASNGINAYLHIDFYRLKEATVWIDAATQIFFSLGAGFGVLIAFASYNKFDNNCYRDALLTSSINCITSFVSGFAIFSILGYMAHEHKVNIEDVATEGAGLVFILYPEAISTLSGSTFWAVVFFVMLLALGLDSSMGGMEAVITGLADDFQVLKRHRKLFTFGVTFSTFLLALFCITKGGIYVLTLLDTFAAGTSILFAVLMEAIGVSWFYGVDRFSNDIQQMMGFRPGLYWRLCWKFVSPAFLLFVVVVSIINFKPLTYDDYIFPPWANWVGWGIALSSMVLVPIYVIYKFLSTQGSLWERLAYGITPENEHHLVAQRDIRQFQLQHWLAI
Chain of UniProt Q01959 (whole entry, looked up): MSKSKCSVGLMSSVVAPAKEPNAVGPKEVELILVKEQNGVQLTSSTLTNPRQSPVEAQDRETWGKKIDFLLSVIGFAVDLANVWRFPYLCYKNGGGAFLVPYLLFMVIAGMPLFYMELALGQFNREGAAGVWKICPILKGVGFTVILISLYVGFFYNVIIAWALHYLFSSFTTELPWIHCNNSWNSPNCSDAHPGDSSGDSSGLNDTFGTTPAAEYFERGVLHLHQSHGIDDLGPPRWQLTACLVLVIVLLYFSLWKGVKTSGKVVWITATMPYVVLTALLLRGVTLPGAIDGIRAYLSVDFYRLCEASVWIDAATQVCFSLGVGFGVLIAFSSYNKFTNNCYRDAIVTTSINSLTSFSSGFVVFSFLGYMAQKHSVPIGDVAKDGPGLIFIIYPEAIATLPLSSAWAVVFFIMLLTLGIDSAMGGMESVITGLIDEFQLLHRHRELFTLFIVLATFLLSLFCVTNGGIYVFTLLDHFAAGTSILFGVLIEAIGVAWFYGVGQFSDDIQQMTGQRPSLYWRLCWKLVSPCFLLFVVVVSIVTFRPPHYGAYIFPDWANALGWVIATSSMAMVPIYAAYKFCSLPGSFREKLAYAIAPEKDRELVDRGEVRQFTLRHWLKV

Set 1
Target: tungstate, free oxyanion
Technique: microfluidic competitive inhibition
Matrix: in vitro, cell-free expressed
Tested at: not given
Setting: derived from inhibition constants, unchanged parent 2230 nM
Reading: lower = stronger binding
Parent: PafA, mature enzyme, eGFP fusion (Elizabethkingia meningoseptica, UniProt Q9KJX5); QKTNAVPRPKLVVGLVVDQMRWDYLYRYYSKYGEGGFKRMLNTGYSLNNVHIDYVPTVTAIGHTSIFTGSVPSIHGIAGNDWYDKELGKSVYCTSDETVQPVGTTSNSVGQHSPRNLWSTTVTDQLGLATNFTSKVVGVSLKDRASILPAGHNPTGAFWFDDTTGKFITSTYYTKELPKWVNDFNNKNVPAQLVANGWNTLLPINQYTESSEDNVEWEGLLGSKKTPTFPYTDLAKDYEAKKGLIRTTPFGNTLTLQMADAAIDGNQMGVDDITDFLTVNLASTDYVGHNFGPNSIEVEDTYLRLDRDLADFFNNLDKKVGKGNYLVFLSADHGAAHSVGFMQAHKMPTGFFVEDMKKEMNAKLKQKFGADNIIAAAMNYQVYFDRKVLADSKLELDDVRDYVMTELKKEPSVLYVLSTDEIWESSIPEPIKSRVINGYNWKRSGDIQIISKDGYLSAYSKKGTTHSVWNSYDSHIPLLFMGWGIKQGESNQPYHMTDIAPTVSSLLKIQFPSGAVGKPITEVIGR
| Variant | oxyanion analog dissociation constant [µM] |
| --- | --- |
| G127A | 2.09 |
| P7V | 2.36 |
| S113G | 1.55 |
| D385G | 2.07 |
| K166V | 2.36 |
| Y380V | 1.98 |
| T301V | 1.95 |
| K393V | 2.17 |

Set 2
Organism: Sarcocystis neurona
Read-out: parasite growth
Tested at: 10 µM
Time: 96 h
Setting: second screen
Reference: untreated
| Compound | log2 fold change |
| --- | --- |
| c1cncc([C@@H]2CCCN2)c1 | 0.52 |
| CCC1(c2ccc(N)cc2)CCC(=O)NC1=O (stereo not drawn) | 0.39 |
| O=C(O)C(Cl)Cl | 0.27 |

Set 3
Structure (SMILES): COc1cc(-c2cn(C3CCc4c(F)cccc4N(CC(F)(F)F)C3=O)nn2)ccc1-n1cnc(C)c1 (stereo not drawn)
Read-out: ligand displacement
Tested at: 10 µM
| target | inhibition |
| --- | --- |
| SLC6A3 (Homo sapiens, UniProt Q01959) | 99.7% |
| SLC6A4 (Homo sapiens, UniProt P31645) | 88.6% |
| SLC6A2 (Homo sapiens, UniProt P23975) | 87.1% |

Set 4
Cell line: mouse MPNST tumor cells
Technique: high-content nuclear imaging
Measured: cell number
Tested at: 10 µM
Time: 12 h
Setting: mean of 2 replicates
Reference: plate mean
Reading: higher = more cells
| Structure (SMILES) | nuclei count [z-score] |
| --- | --- |
| CC(C)c1ccccc1C1SCC(=O)Nc2ccc(Cl)cc21 (stereo not drawn) | 0.716 |
| CCC1(c2ccc(N)cc2)CCC(=O)NC1=O (stereo not drawn) | 0.909 |
| O=C1Nc2ccccc2C2(CCN(CCc3ccc(C(F)(F)F)cc3)CC2)O1 | -1.02 |
| CN(Cc1cccc(-c2ccccc2)c1)C(=O)Oc1ccc(-c2ccc(C(N)=O)cc2)cc1 | -0.143 |
